Measured values pooled from the literature.
Parts stem from different laboratories: compare values within a part only. Values joined by “and” are separate records of one study, mostly repeats; a detail may differ.

Study 1
SMILES: C[C@@H]1CN(c2ccc(-c3cc(C(=O)NCCOCCOCCOCCOCCNC(=O)Cn4cc(-c5[nH]cc(C(=O)N[C@@H](CC(N)=O)c6ccc(F)c(Cl)c6)c5-c5ccc(Cl)cc5F)cn4)ccc3F)cc2NC(=O)c2c[nH]c(=O)cc2C(F)(F)F)C[C@H](C)N1C
Observed: thermal unfolding
Method: differential scanning fluorimetry
Concentration: 5.5 µM
Direction: higher = more unfolded
DCAF1: DDB1- and CUL4-associated factor 1 (DCAF1, Homo sapiens, UniProt Q9Y4B6)
UniProt Q9Y4B6, sequence (whole entry, looked up): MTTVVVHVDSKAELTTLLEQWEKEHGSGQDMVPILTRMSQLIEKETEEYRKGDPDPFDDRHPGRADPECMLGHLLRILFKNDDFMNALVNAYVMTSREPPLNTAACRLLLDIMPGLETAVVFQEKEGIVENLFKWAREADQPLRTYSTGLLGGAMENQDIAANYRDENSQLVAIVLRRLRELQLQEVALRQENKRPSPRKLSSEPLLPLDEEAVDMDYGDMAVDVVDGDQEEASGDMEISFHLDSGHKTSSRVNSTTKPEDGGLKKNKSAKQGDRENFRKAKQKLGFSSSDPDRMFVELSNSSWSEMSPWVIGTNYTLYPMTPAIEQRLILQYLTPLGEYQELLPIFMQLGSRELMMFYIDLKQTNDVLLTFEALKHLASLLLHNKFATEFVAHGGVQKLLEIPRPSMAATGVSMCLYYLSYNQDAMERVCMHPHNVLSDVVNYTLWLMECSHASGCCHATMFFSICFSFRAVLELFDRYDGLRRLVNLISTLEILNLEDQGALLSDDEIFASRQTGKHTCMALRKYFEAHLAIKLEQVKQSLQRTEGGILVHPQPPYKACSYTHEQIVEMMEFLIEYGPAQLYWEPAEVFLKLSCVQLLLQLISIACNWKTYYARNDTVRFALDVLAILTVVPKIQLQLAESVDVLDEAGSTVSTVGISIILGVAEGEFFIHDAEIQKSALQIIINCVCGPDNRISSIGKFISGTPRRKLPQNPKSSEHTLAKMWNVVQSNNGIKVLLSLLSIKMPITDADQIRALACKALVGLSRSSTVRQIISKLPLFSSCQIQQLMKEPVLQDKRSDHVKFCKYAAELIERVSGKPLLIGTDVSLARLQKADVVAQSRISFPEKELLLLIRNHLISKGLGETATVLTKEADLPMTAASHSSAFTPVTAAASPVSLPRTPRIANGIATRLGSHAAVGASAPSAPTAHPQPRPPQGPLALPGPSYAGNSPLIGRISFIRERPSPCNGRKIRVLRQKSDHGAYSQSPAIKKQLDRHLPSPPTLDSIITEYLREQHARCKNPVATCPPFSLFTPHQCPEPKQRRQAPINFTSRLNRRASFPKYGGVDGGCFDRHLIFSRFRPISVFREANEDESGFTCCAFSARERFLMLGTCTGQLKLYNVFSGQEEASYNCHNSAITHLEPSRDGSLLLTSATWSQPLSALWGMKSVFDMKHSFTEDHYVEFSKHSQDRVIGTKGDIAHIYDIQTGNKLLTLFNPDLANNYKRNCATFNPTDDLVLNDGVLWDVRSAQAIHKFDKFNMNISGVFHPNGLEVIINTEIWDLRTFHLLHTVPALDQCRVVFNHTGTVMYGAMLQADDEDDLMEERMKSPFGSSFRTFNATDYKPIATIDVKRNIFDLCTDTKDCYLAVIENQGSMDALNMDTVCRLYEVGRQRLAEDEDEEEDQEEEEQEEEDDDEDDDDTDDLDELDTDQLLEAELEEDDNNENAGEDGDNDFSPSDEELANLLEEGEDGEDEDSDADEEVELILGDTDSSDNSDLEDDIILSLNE
DCAF1; 35.4 °C — “SYPRO Orange fluorescence”: 8960 a.u.
The “SYPRO Orange fluorescence” was 9340 a.u. (DCAF1; 36.6 °C).
It gave 49500 a.u. for “SYPRO Orange fluorescence” (DCAF1; 74.81 °C).
The “SYPRO Orange fluorescence” was 9840 a.u. (WDR5 (Homo sapiens, UniProt P61964); 61.01 °C).
DCAF1; 81.01 °C — “SYPRO Orange fluorescence”: 43300 a.u.
The “SYPRO Orange fluorescence” was 50800 a.u. (DCAF1; 62.81 °C).
It gave 13600 a.u. for “SYPRO Orange fluorescence” (DCAF1; 48.4 °C).

Study 2
SMILES: Cn1cc(-c2cccc(CN3CCC4(CC3)COc3c4ccc4c3CN([C@H]3CCC(=O)NC3=O)C4=O)c2)cn1
It gave 95.9% for remaining compound (rat plasma; 120 min, mean).
It gave 100% for remaining compound (rat plasma; 0 min).
rat plasma; 30 min, mean — remaining compound: 118%.
monkey plasma; 5 min, mean — remaining compound: 111%.
The remaining compound was 90.6% (human plasma; 120 min, mean).
The remaining compound was 100% (mouse plasma; 0 min).
For human plasma; 30 min, mean: remaining compound read 109%.
The remaining compound was 100% (monkey plasma; 120 min, mean).
It gave 94.3% for remaining compound (human plasma; 60 min, mean).
For rat plasma; 60 min, mean: remaining compound read 110%.

Study 3
Target: E3 ubiquitin-protein ligase NEDD4, HECT domain (Homo sapiens, UniProt P46934)
Observed: enzyme activity
Action: inhibitor
Method: Ub-TR-FRET
Sample: HECT domain
Concentration: 33.33 µM
Direction: higher = more chain formation
Residues (P46934 938-1319, limits assumed): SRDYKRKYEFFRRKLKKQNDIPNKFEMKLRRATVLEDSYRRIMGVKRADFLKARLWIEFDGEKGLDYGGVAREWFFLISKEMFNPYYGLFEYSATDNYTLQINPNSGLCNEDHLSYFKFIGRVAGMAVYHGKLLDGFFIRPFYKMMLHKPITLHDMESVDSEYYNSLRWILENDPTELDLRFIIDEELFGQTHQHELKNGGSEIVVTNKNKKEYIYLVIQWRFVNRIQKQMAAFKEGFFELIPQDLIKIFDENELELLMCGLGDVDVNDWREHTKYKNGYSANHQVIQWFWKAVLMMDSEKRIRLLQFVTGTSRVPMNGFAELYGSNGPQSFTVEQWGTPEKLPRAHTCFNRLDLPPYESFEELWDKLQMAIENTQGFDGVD
For `CN(C)C(=O)/C=C/CNCCCN1c2ccccc2CCc2ccc(Cl)cc21.Cl`, “ubiquitin chain formation AUC” read 113000 a.u. and 114000 a.u.
Under “ubiquitin chain formation AUC”, `CCOC(=O)/C=C/CN(CC)CCCCN1c2ccccc2CCc2ccc(Cl)cc21.O=C(O)/C=C\C(=O)O` is recorded as 13000 a.u. and 13400 a.u. and 11700 a.u. and 12400 a.u. and 14000 a.u. and 13200 a.u.
Under “ubiquitin chain formation AUC”, `CNC(=O)/C=C/CNCCCN1c2ccccc2CCc2ccc(Cl)cc21.Cl` is recorded as 83700 a.u. and 83900 a.u. and 84200 a.u.
For `COC(=O)/C=C/C(=O)NCCCN1c2ccccc2CCc2ccc(Cl)cc21`, “ubiquitin chain formation AUC” read 151000 a.u. and 150000 a.u. and 148000 a.u.
`CCOC(=O)/C=C/CNCCCCN1c2ccccc2C(=O)N(C)c2ccc(Cl)cc21.O=C(O)/C=C\C(=O)O` — result for “ubiquitin chain formation AUC”: 13300 a.u. and 14000 a.u. and 14300 a.u.
Under “ubiquitin chain formation AUC”, `CNCCCN1c2ccccc2CCc2ccc(Cl)cc21` is recorded as 123000 a.u. and 121000 a.u. and 128000 a.u.
`CCONC(=O)/C=C/CNCCCCN1c2ccccc2CCc2ccc(Cl)cc21.O=C(O)/C=C\C(=O)O` — result for “ubiquitin chain formation AUC”: 4920 a.u. and 5310 a.u. and 5220 a.u. and 5210 a.u. and 4850 a.u. and 5200 a.u.
Under “ubiquitin chain formation AUC”, `CCOC(=O)/C=C/CNCCCN1c2ccccc2CCc2ccc(Cl)cc21` is recorded as 6070 a.u. and 6210 a.u. and 5470 a.u.

Mixed results
With `C#CCN1C(=O)C(O)(C(=O)O)Oc2cc(F)ccc21` (centres unmarked) the inhibition was 54.5% and 46% and 56.1% (Alopecurus aequalis; fresh weight; 150 g ai/ha, pre-emergence treatment).

A few entries again (study 2):
It gave 95.9% for remaining compound (rat plasma; 120 min, mean).
For rat plasma; 60 min, mean: remaining compound read 110%.
The remaining compound was 100% (mouse plasma; 0 min).
The remaining compound was 100% (monkey plasma; 120 min, mean).
